Measured values gathered from unrelated publications.
Protocols differ between the studies behind these lines.

| SMILES | cell line | test | test system | setting | measurement | result |
| --- | --- | --- | --- | --- | --- | --- |
| CC(=O)c1nn(-c2ccc(C)cc2)/c(=N/N=C(\C)c2ccc(NC(=O)c3ccccc3)cc2)s1 | WI-38 | cell growth or viability, MTS | – | 0.625 µM, 24 h | viability | 5.12% |
| O=C(CNc1ccccc1N1CCCC1=O)Nc1ccc(Oc2ccc(F)cc2)cc1 | HepG2 | cell growth or viability, ATP luminescence | – | 48 h | CC50 | 5.3 µM |
| COc1cc(N2CCC(N3CCN(C)CC3)CC2)ccc1Nc1ncc(Cl)c(Nc2ccccc2P(C)(C)=O)n1 | MDR1 | – | MDCK-MDR1 | – | Papp A→B | 1.37 to 4.21 nm/s |
| O=[N+]([O-])c1cnc2ccccc2c1O | K562 | cell growth or viability | – | – | IC50 | > 674 µM |
| CC(C)N(c1ccc(Cl)c(F)c1)c1ccc(NC(=O)CN(C)c2ccccc2N2CCCC2=O)cn1 | HepG2 | cell growth or viability, ATP luminescence | – | 48 h | CC50 | > 40 µM |
| COc1cccc2c1C(=O)c1c(O)c3c(c(O)c1C2=O)C[C@@](O)(C(=O)CO)C[C@@H]3O[C@H]1C[C@H](N)[C@H](O)[C@H](C)O1 | WI-38 | cell growth or viability, MTT | – | 50 µM, 24 h | viability | 14.5% |
| Cc1ccc(N(C)c2ccc(NC(=O)CN(C)c3ccccc3N3CCCC3=O)c(F)c2)cc1 | HepG2 | cell growth or viability, ATP luminescence | – | 48 h | CC50 | > 40 µM |
| CCC1=C(CC)/C(=C/NC23CC4CC(CC(C4)C2)C3)N=C1c1cc2ccccc2[nH]1 | HepG2 | cell growth or viability, MTT | – | 48 h | IC50 | 7.01 µM |
| Cc1cccc(O)c1C(=O)O | K562 | cell growth or viability | – | – | IC50 | > 200 µM |
| COc1cccc(NC(=O)Nc2ccc(Oc3nc4ccccc4n4cnnc34)cc2)c1 | WI-38 | cell growth or viability, MTT | – | 100 µM, 24 h | viability | 46% |
| Nc1ccn([C@@H]2O[C@H](CO)[C@@H](O)C2(F)F)c(=O)n1 | HEK293 | cell growth or viability, MTT | – | 1.25 µg/mL, 48 h | viability | 59% |
| CCOC(=O)/C(C#N)=C(\O)c1ccc(NC(=O)c2cccs2)cc1 | K562 | cell growth or viability | – | – | IC50 | 35.9 µM |
| Cc1ccc(Cc2ccc(NC(=O)CN(C)c3ccccc3N3CCCC3=O)cc2)cc1 | HepG2 | cell growth or viability, ATP luminescence | – | 48 h | CC50 | > 40 µM |
| CSc1nc(C)c(Cl)c(O)n1 | K562 | cell growth or viability | – | – | IC50 | > 670 µM |
| COc1ccc(S(=O)(=O)ON=C2C=C(C)C(=O)C(C)=C2)cc1 | DLD-1 | cell growth or viability | – | – | CC50 | 8.35 µM |
| O=C(COC(=O)c1n[nH]c2ccccc12)Nc1ccc(N2CCCCC2)cc1 | K562 | cell growth or viability | – | – | IC50 | 41.6 µM |
| Cc1ccc(N(C)c2ccc(NC(=O)CN(C)c3ccc(F)cc3N3CCCC3=O)cc2)cc1 | HepG2 | cell growth or viability, ATP luminescence | – | 48 h | CC50 | > 40 µM |
| O=C1NC(=O)C(Cc2ccc(O)cc2)S1 (stereo not drawn) | K562 | cell growth or viability | – | – | IC50 | > 574 µM |
| Cc1ccc(Oc2ccc(NC(=O)COc3ccccc3N3CCCC3=O)cc2)cc1 | HepG2 | cell growth or viability, ATP luminescence | – | 48 h | CC50 | > 40 µM |
| CNC(=O)c1cc(Oc2ccc(NC(=O)Nc3ccc(Cl)c(C(F)(F)F)c3)cc2)ccn1 | WI-38 | cell growth or viability, MTT | – | 6.25 µM, 24 h | viability | 63.7% |
| Cc1ccc(N(c2ccc(NC(=O)CN(C)c3ccccc3N3CCCC3=O)cn2)C(C)C)cc1F | HepG2 | cell growth or viability, ATP luminescence | – | 48 h | CC50 | > 40 µM |
| Cc1cc(O)c(C)c(O)c1C(=O)O | K562 | cell growth or viability | – | – | IC50 | > 200 µM |
| Cc1ccc(Oc2ccc(NC(=O)CNc3ccccc3N3CCOC3=O)cc2)cc1 | HepG2 | cell growth or viability, ATP luminescence | – | 48 h | CC50 | 8.6 µM |
| O=C(C[n+]1cc(-c2ccc(Cl)cc2)n2c1CCC2)Nc1ccc(Cl)c(Cl)c1 | K562 | cell growth or viability | – | – | IC50 | 11.9 µM |

Excerpt of the above:
| SMILES | cell line | test | test system | setting | measurement | result |
| --- | --- | --- | --- | --- | --- | --- |
| CC(=O)c1nn(-c2ccc(C)cc2)/c(=N/N=C(\C)c2ccc(NC(=O)c3ccccc3)cc2)s1 | WI-38 | cell growth or viability, MTS | – | 0.625 µM, 24 h | viability | 5.12% |
| O=C(CNc1ccccc1N1CCCC1=O)Nc1ccc(Oc2ccc(F)cc2)cc1 | HepG2 | cell growth or viability, ATP luminescence | – | 48 h | CC50 | 5.3 µM |
| COc1cc(N2CCC(N3CCN(C)CC3)CC2)ccc1Nc1ncc(Cl)c(Nc2ccccc2P(C)(C)=O)n1 | MDR1 | – | MDCK-MDR1 | – | Papp A→B | 1.37 to 4.21 nm/s |
| O=[N+]([O-])c1cnc2ccccc2c1O | K562 | cell growth or viability | – | – | IC50 | > 674 µM |
